Experimental data from different studies.
Every numbered part comes from another study and shows a few of its results, in no order.

Set 1
Target: Sal-like protein 4, full length isoform A (SALL4, Homo sapiens, UniProt Q9UJQ4, residues 1-1053)
UniProt Q9UJQ4, sequence (whole entry, looked up): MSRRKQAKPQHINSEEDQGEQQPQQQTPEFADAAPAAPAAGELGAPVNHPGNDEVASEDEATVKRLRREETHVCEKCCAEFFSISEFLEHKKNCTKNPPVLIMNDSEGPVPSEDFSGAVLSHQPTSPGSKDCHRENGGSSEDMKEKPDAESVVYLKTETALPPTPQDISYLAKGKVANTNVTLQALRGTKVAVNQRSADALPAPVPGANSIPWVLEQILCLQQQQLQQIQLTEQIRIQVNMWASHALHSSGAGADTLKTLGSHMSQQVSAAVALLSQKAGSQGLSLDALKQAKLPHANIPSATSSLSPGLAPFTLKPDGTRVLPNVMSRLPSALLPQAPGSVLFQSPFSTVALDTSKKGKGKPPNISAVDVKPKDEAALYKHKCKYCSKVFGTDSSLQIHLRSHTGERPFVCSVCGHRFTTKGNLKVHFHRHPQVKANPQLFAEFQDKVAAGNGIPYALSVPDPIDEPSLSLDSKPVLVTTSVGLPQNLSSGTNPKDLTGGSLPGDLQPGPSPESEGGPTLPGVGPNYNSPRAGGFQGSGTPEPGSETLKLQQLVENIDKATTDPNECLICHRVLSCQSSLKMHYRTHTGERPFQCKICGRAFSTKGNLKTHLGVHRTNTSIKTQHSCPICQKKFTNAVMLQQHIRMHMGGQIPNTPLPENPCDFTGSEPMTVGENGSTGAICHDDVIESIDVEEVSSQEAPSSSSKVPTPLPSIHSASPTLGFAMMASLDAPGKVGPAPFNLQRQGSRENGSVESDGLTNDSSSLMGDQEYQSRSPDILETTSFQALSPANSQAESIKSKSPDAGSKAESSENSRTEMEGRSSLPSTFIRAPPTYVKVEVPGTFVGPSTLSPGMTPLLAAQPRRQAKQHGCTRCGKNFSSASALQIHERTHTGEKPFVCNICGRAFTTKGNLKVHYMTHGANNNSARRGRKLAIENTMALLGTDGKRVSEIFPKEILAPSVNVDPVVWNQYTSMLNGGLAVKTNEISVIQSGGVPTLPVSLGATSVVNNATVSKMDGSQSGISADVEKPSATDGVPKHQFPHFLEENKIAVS
Method: universal PBM
Molecule type: double-stranded DNA, one strand shown
Matrix: in vitro
Concentration: 600 nM
Setting: 8-mer, flanks averaged, mean of replicates
Direction: higher = stronger binding
For `AGGGTCAC`, the E-score was -0.321.
With `CAAGCAGC` the E-score was -0.124.
For `ACTGATCC`, the E-score was -0.0624.
The E-score of `CCTTACCA` is reported as 0.126.
The E-score of `ATAGTAAT` is reported as 0.34.
For `AGTCAGCC`, the E-score was -0.225.
For `CATTACCG`, the E-score was 0.0244.
With `ACCACGCA` the E-score was -0.113.
With `CCGTGTCA` the E-score was -0.261.
`ACACGGCG` gave an E-score of -0.178.
`CAAAGGGC` has an E-score of -0.308.
With `AGATCAGG` the E-score was -0.168.
For `AAGGCTGG`, the E-score was -0.216.

Set 2
Target: RING finger protein unkempt homolog, zinc fingers 1-6, GST-SBP tag (UNK, Homo sapiens, UniProt Q9C0B0, residues 30-357)
UniProt Q9C0B0, sequence (30-357, looked up): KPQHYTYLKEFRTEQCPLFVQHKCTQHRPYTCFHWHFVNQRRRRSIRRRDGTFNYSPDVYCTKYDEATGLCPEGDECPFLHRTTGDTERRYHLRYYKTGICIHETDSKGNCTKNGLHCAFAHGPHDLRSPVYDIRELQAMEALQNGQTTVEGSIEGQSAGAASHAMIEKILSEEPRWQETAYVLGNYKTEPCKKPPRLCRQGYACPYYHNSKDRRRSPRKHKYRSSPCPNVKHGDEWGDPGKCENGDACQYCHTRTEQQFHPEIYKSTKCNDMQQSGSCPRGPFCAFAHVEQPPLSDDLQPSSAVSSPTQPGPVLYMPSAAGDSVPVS
Method: RNA Bind-n-Seq
Molecule type: RNA
Matrix: in vitro
Concentration: not given
Setting: RNA with constant flanks, human-mouse chimeric sites, ends assumed
Baseline: input RNA pool
Direction: higher = stronger binding
The bound/input enrichment of `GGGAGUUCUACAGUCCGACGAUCCACGUGUCUGCAGUGCUUGAUGUGGACUACUCUCCCACUGGGAAGGAAUUUGUGUCUGCUAGUUUCGAUAAGUCUAUUAGAAUCUUUCCUGUGGACAAGAGCCGAAGCAGGGAAGUGUAUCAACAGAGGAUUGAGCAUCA` is reported as 1.58 ratio.
With `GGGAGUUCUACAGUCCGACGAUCAUGGAACAUUUUGAUGCGUCACUCAGUACCUAUUUCAAGGCCUUCCUGGGCCCCCGAGAUACAAGAGUAAAAGGAUGGUUCCUCCUGGACAAUUACAUCCCUACGUUUGUCUGUUCUGUUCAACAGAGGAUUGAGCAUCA` the bound/input enrichment was 0.126 ratio.
For `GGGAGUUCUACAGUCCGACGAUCGGGUGGGUGGUCAUUGCGCCAAUUGAGGCUGAUUUUCAUGAGUCGCCUUCAAAACUCUCGUGUAGGGUUGACAAUGUGGGGGGGUGGGGGAUCCAGCUUAUUCUUUUAUUUUCAAGUCCACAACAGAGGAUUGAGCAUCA`, the bound/input enrichment was 0.946 ratio.
With `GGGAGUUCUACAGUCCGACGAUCAUCAAAUACUUUGGGGACAUCAUUAGUGUGGGACAGAGAUUGUUGCAAGGAGCUCGGAUCUUAGGGAUUCCAGUUAUCAUAACGGAACAAUACCCUAAAGGACUUGGCAGCACCGUUCAACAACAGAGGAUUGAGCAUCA` the bound/input enrichment was 0.205 ratio.
For `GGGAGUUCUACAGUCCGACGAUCAAAGAGAAACUAAAGCAACUAAUAGAGAAGAGGAUUGGCAAAGAGAAUUUCAUAGAGAAACUAGGAUUUAUUAGCAAACAUGAGUUAGUAUUCCAGACGUCUCAGAAAACCCCAGCCAACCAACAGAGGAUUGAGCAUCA`, the bound/input enrichment was 2.56 ratio.
`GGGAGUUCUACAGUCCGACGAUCAGAGAUAAGACAUCCAGGAACAUGCGAGGCUCCCGGAUGAAUGGACUGCCUAGCCCCACUCACAGCGCCCACUGUAGCUUCUACCGAACCAGAACCUUGCAGGCACUGAGUAAUGAGAAGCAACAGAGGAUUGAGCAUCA` gave a bound/input enrichment of 0.116 ratio.
`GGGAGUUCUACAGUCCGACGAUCAUCCAGUACUCCAAUCACAAAGAACUAAAGACAGAUAAUACAUUAAACCAACGUGCGCAGGCAGUUCUUCAAGCUGUGACAGCUGUCCAGACAGCAAAUACUCCUCUUAGUGGCACCACACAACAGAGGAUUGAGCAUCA` has a bound/input enrichment of 0.473 ratio.
The bound/input enrichment of `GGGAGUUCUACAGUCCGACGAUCUGUGAACUGAAAGGUGUGAUCUAAAAACAAGAUGACUUUUCCUGGCACAUAUUCCAAAGCAAAGACUUUGUUGCCUGCUGCUUAUUGUCUAAUUUACAGGGAUAUUUAAUUUUGUAAGGUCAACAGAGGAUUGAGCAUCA` is reported as 0.152 ratio.

Set 3
Target: Interferon regulatory factor 7, full length, phosphomimetic (IRF7, Homo sapiens, UniProt Q92985, residues 1-503, S471D/S472D/S475D/S476D/S477D/S483D/S484D/S487D)
Method: protein-binding microarray
Molecule type: double-stranded DNA, one strand shown
Matrix: in vitro
Concentration: 2200 nM top
Setting: 60-bp whole probe
With: salmon DNA 0.4 mg/ml
Baseline: random background probes
Direction: higher = stronger binding
Constant ends, left off below: GCCTAGCAC … GTCTTGATTCGCTTGACGCTGCTG
Target sequence (chain): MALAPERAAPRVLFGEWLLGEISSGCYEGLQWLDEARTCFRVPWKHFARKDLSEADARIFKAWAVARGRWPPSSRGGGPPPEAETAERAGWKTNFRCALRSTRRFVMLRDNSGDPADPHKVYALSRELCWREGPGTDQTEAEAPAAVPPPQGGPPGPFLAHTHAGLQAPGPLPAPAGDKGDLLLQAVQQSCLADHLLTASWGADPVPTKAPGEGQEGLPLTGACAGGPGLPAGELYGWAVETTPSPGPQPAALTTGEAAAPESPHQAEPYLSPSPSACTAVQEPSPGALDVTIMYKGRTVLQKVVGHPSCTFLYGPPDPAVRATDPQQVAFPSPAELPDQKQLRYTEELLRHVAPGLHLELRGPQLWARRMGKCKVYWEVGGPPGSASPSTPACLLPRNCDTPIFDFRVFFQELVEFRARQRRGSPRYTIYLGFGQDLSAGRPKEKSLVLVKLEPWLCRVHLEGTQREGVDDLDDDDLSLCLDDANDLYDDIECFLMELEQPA
Under “fitted relative affinity”, `TCACATGTTTTTTTCTAACTGTGCTAG` is recorded as 1.53 z-score.
`TTAGATATCGGGTATCGTTTAGTGCTA`: “fitted relative affinity” 0.582 z-score.
For `GACGTACTGGGGACTGGGGACGTGCTA`, “fitted relative affinity” read -0.319 z-score.
`GACGGTTTCGGTATCGCGACGTGCTAG`: “fitted relative affinity” 7.61 z-score.
`GACGGTTTCAGTATCGAGACGTGCTAG` — result for “fitted relative affinity”: 2.35 z-score.
`TTAGGACTGCTTTTCCATTAGTGCTAG`: “fitted relative affinity” 1.01 z-score.
`AGTTCTCTGAAGACTCTCTTGGTGCTA`: “fitted relative affinity” 0.297 z-score.
Under “fitted relative affinity”, `AAGTTTCTCCTTTCGGAATAGTGCTAG` is recorded as 5.52 z-score.
For `TGTTTTAATTTTCTCTTTGGGTGCTAG`, “fitted relative affinity” read 4.89 z-score.
For `TCCCTTCAACAGTGCTGGCTGTGCTAG`, “fitted relative affinity” read 0.952 z-score.
`GACGAACTGAGTCACGAGACGTGCTAG` — result for “fitted relative affinity”: 0.0166 z-score.
Under “fitted relative affinity”, `TTAGAACTGGGGACTGGGTTAGTGCTA` is recorded as -0.552 z-score.
`TCACGTTTACATTTTCCACTGTGCTAG`: “fitted relative affinity” 2.82 z-score.
For `TTAGGTCTCCGTTTCCTTTAGTGCTAG`, “fitted relative affinity” read 1.92 z-score.
For `GACGGACTGCTTTGCCTGACGTGCTAG`, “fitted relative affinity” read 0.0853 z-score.
Under “fitted relative affinity”, `TTCGGTATCGACTTTCGGTTAGTGCTA` is recorded as 6.46 z-score.
`AGCACTTTGGCATGTCTTGACGTGCTA`: “fitted relative affinity” -0.423 z-score.
`GACGGTATCGACTATCGGGATGTGCTA`: “fitted relative affinity” -0.0316 z-score.

Single results of other studies
`PhoQ, residues 284 288 289 292 302 303 SSTLLI` gave a fold induction of 2.88 (PhoP, residues 12 14 15 18 19 NFCKL (Escherichia coli, UniProt P23836); Sort-seq, measured: YFP reporter; E. coli; PhoQ-PhoP variant library, with: 10 µM Mg2+; baseline: high Mg2+ state, higher = stronger signaling).

Some of these lines once more (set 2):
The bound/input enrichment of `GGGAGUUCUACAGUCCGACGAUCUGUGAACUGAAAGGUGUGAUCUAAAAACAAGAUGACUUUUCCUGGCACAUAUUCCAAAGCAAAGACUUUGUUGCCUGCUGCUUAUUGUCUAAUUUACAGGGAUAUUUAAUUUUGUAAGGUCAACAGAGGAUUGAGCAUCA` is reported as 0.152 ratio.
With `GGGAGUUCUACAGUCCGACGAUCAUCAAAUACUUUGGGGACAUCAUUAGUGUGGGACAGAGAUUGUUGCAAGGAGCUCGGAUCUUAGGGAUUCCAGUUAUCAUAACGGAACAAUACCCUAAAGGACUUGGCAGCACCGUUCAACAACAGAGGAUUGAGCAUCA` the bound/input enrichment was 0.205 ratio.
